Measured values from different studies.
A part holds a random share of what one study measured.
UniProt Q9UPZ9, sequence (whole entry, looked up): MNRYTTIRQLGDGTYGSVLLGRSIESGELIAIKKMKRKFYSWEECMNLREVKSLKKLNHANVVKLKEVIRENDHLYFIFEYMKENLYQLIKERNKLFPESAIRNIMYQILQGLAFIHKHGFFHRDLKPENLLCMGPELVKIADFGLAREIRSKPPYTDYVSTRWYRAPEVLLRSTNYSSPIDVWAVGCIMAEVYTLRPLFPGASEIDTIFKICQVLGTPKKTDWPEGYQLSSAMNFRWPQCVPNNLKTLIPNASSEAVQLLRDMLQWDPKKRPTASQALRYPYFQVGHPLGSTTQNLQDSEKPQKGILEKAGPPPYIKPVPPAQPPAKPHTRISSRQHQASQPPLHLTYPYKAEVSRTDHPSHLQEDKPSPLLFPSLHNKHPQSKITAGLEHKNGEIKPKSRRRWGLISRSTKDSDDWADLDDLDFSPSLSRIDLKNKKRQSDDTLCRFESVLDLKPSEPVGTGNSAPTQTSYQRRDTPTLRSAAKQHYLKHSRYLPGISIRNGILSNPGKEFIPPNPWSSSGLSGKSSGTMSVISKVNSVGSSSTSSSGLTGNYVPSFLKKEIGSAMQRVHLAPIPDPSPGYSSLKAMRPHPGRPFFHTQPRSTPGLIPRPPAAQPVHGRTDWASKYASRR
UniProt Q13464, sequence (whole entry, looked up): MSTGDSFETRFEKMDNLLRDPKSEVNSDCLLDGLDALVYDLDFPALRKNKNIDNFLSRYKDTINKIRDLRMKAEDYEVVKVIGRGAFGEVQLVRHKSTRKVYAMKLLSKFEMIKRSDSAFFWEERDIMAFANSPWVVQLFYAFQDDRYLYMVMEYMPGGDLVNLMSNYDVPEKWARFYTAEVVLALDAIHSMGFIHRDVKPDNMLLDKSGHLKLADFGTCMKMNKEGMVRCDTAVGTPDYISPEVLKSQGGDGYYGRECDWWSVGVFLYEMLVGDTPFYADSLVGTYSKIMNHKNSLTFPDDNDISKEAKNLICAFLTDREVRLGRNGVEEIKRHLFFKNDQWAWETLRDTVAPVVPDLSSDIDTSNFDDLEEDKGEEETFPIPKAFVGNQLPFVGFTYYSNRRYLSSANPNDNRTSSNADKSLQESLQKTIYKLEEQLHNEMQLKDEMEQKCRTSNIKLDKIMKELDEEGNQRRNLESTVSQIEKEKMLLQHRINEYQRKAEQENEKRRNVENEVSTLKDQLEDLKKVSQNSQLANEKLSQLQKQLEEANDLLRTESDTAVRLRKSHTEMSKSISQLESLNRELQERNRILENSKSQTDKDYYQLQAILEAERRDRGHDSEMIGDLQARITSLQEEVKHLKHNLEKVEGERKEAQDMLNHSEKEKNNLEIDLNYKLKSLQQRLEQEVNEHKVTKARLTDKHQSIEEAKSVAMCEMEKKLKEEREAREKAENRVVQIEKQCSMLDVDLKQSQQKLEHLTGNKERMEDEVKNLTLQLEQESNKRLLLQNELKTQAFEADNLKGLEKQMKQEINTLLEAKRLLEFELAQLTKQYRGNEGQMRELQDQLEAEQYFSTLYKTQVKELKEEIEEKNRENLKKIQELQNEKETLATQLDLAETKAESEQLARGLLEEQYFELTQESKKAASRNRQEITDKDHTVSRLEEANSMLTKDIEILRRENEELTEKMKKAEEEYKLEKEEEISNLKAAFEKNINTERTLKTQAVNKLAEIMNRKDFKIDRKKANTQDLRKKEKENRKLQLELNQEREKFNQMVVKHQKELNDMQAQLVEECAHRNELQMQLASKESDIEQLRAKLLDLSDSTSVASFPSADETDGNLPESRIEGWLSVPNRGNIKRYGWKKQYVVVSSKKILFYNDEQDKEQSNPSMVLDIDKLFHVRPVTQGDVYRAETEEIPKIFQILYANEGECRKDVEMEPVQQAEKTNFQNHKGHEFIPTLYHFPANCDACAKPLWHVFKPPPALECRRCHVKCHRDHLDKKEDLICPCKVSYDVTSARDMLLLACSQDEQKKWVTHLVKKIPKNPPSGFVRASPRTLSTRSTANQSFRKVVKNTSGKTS
UniProt Q15759, sequence (whole entry, looked up): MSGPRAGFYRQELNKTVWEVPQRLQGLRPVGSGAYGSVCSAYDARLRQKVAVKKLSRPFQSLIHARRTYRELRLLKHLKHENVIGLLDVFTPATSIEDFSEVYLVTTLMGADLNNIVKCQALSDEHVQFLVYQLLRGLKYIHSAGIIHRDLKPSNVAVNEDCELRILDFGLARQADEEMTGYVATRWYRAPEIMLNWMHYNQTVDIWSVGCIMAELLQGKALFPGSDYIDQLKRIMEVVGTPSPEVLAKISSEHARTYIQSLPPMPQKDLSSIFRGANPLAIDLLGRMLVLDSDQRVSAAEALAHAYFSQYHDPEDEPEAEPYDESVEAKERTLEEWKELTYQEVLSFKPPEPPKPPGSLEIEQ
UniProt Q8N4C8, sequence (whole entry, looked up): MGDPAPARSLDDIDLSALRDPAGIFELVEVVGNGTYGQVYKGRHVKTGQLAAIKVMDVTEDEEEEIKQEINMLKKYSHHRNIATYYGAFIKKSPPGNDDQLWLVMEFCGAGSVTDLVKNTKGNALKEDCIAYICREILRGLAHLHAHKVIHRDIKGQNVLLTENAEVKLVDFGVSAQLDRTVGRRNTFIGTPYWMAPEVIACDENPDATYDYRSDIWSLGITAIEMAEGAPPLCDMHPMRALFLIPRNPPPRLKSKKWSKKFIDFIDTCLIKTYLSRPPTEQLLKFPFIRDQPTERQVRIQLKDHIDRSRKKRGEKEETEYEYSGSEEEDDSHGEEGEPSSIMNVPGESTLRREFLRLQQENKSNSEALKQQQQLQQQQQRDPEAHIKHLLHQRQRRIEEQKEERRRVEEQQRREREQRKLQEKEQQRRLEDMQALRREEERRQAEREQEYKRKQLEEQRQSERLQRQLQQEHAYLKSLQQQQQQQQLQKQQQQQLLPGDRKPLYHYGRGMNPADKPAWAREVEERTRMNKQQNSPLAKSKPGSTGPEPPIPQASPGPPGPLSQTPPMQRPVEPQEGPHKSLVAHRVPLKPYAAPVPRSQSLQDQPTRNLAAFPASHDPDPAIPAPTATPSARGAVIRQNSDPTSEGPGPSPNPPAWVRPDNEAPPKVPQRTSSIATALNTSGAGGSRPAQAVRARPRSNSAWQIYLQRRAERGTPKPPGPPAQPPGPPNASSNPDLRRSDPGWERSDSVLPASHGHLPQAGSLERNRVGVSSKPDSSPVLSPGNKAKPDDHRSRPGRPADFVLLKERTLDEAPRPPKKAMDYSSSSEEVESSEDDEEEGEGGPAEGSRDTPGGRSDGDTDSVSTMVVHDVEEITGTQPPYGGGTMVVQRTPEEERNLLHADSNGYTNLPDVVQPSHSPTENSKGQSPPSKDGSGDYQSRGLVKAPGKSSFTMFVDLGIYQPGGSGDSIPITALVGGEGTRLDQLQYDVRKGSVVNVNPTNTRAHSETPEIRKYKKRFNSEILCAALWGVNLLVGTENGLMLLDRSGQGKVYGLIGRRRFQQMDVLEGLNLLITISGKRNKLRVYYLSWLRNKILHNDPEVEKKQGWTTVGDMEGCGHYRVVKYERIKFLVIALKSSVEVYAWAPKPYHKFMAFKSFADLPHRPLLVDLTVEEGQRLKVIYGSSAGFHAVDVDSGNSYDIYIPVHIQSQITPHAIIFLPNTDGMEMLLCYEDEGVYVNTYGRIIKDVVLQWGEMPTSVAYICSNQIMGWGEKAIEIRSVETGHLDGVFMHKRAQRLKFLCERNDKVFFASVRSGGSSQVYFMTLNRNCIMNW
UniProt P28482, sequence (whole entry, looked up): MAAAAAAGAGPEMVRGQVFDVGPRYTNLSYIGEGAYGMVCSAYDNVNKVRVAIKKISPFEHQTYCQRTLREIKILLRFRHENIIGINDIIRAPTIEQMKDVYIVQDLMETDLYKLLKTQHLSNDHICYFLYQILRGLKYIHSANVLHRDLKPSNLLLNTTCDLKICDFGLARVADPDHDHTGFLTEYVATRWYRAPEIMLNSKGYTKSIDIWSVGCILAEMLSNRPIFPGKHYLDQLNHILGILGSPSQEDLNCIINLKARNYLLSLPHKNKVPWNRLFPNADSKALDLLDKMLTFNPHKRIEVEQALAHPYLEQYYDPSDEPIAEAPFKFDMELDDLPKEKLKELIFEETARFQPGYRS
UniProt Q13237, sequence (whole entry, looked up): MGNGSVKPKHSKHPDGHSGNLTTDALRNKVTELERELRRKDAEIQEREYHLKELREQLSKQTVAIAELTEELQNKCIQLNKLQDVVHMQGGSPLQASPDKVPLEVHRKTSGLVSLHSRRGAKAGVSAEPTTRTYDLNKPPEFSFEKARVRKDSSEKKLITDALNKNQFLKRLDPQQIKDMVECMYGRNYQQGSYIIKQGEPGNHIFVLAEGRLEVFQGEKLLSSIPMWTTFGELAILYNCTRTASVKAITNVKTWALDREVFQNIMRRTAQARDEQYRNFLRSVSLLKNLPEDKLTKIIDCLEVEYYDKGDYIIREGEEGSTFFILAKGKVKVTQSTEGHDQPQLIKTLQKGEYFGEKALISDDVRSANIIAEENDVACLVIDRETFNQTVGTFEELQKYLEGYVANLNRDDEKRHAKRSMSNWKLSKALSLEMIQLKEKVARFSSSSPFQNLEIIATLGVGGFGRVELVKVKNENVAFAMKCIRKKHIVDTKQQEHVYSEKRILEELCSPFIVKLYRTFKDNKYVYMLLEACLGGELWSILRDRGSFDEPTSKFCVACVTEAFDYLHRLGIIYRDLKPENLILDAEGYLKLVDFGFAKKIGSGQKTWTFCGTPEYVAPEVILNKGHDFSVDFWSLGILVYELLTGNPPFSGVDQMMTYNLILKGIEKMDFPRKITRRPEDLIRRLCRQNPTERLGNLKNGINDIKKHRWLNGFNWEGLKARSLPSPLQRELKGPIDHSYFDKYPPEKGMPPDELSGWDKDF

Block 1
SMILES: Ic1cccc(CSc2nnc(-c3ccncc3)o2)c1
Observed: enzyme activity
Mode: inhibitor
Tested at: 0.5 µM
Baseline: control
| target | remaining activity |
| --- | --- |
| MARK2 (Homo sapiens, UniProt Q7KZI7) | 116% |
| MINK1 (Homo sapiens, UniProt Q8N4C8) | 90.2% |
| DCLK2 (Homo sapiens, UniProt Q8N568) | 100% |
| PLK3 (Homo sapiens, UniProt Q9H4B4) | 96.1% |
| ROCK1 (Homo sapiens, UniProt Q13464) | 88% |
| MET (Homo sapiens, UniProt P08581) | 88.7% |
| MAPK11 (Homo sapiens, UniProt Q15759) | 96.9% |
| Cyclin-dependent kinase 1, with cyclin A (CDK1, Homo sapiens, UniProt P06493) | 99.8% |
| AKT2 (Homo sapiens, UniProt P31751) | 101% |
| MAPK1 (Homo sapiens, UniProt P28482) | 107% |
| RPS6KA4 (Homo sapiens, UniProt O75676) | 92.1% |
| PRKG2 (Homo sapiens, UniProt Q13237) | 105% |
| MARK4 (Homo sapiens, UniProt Q96L34) | 86.8% |
| DDR2 (Homo sapiens, UniProt Q16832) | 102% |

Block 2
Structure (SMILES): CCS(=O)(=O)c1cc2cc(C[C@](O)(CC(C)(C)c3ccc(F)cc3C(N)=O)C(F)(F)F)[nH]c2cn1
Observed: cell-free assay
Method: competition with immobilised ligand
Tested at: 1 µM
| target | remaining binding [%] |
| --- | --- |
| NEK5 (Homo sapiens, UniProt Q6P3R8) | 100 |
| FLT3 (Homo sapiens, UniProt P36888, ITD) | 91 |
| Tyrosine-protein kinase ABL1, phosphorylated (ABL1, Homo sapiens, UniProt P00519, Y253F) | 93 |
| CILK1 (Homo sapiens, UniProt Q9UPZ9) | 100 |

Block 3
SMILES: CC(C)n1cnc(-c2ccc(F)cc2)c1-c1ncc(C(=O)Nc2ccc(N3CCN(C)CC3)cc2)[nH]1
Method: phase 2a trial
Host: idiopathic pulmonary fibrosis patients
| dose | notes | supraventricular extrasystole patients [%] |
| --- | --- | --- |
| 30 mg once daily | grade 4 emergent event | 0 |
| 60 mg once daily | grade 2 emergent event | 0 |
| 30 mg once daily | grade 5 emergent event | 0 |
| 30 mg once daily | grade 3 emergent event | 0 |

Block 4
Organism: Plasmodium berghei
Mode: inhibitor
Cell line: Huh-7
Strain: liver stage
Tested at: 10 µM
Time: 24 h
Baseline: untreated control
| SMILES | infection rate [%] |
| --- | --- |
| CC(=O)OCC(=O)[C@@]1(O)CC[C@H]2[C@@H]3CCC4=CC(=O)CC[C@]4(C)[C@H]3[C@@H](O)C[C@@]21C | 96 |
| CCCCC1=NC2(CCCC2)C(=O)N1Cc1ccc(-c2ccccc2-c2nnn[nH]2)cc1 | 96.2 |
| CN(C)CCCN1c2ccccc2CCc2ccccc21 | 89.2 |
| Cc1cccc(CN2CCN(C(c3ccccc3)c3ccc(Cl)cc3)CC2)c1 (stereo not drawn) | 89.2 |
| NCc1ccc(S(N)(=O)=O)cc1 | 23.4 |
| O=C(NCC1CCCCN1)c1cc(OCC(F)(F)F)ccc1OCC(F)(F)F (stereo not drawn) | 153 |
| Cc1cnc(NC(=O)C2=C(O)c3ccccc3S(=O)(=O)N2C)s1 | 107 |
| S=c1[nH]cnc2nc[nH]c12 | 63.2 |

Excerpt of the above (block 4):
| SMILES | infection rate [%] |
| --- | --- |
| NCc1ccc(S(N)(=O)=O)cc1 | 23.4 |
| O=C(NCC1CCCCN1)c1cc(OCC(F)(F)F)ccc1OCC(F)(F)F (stereo not drawn) | 153 |
| Cc1cnc(NC(=O)C2=C(O)c3ccccc3S(=O)(=O)N2C)s1 | 107 |
